Published values pooled from the literature.
Every numbered part comes from another study and shows a few of its results, in no order. Changes are numbered by the printed parent chain.

Block 1
Target: CCNB2, cyclin fold, Cln2 fusion (human)
Method: yeast growth competition, sequencing
Matrix: yeast
Notes: strong parent motif
Relative to: not given
Reading: higher = stronger binding
Parent: viral docking peptide; TSVRRALFTGGSD
| Change | normalised enrichment score |
| --- | --- |
| TSVDRALFTGGSD [R4D] | -0.369 |
| TSVRRALFTGNSD [G11N] | 0.427 |
| TSVRRALFTGCSD [G11C] | 1.08 |
| TFVRRALFTGGSD [S2F] | 0.0274 |
| TQVRRALFTGGSD [S2Q] | 0.427 |

Block 2
Target: Sal-like protein 4, full length isoform A (SALL4, Homo sapiens, UniProt Q9UJQ4, residues 1-1053)
UniProt Q9UJQ4, sequence (whole entry, looked up): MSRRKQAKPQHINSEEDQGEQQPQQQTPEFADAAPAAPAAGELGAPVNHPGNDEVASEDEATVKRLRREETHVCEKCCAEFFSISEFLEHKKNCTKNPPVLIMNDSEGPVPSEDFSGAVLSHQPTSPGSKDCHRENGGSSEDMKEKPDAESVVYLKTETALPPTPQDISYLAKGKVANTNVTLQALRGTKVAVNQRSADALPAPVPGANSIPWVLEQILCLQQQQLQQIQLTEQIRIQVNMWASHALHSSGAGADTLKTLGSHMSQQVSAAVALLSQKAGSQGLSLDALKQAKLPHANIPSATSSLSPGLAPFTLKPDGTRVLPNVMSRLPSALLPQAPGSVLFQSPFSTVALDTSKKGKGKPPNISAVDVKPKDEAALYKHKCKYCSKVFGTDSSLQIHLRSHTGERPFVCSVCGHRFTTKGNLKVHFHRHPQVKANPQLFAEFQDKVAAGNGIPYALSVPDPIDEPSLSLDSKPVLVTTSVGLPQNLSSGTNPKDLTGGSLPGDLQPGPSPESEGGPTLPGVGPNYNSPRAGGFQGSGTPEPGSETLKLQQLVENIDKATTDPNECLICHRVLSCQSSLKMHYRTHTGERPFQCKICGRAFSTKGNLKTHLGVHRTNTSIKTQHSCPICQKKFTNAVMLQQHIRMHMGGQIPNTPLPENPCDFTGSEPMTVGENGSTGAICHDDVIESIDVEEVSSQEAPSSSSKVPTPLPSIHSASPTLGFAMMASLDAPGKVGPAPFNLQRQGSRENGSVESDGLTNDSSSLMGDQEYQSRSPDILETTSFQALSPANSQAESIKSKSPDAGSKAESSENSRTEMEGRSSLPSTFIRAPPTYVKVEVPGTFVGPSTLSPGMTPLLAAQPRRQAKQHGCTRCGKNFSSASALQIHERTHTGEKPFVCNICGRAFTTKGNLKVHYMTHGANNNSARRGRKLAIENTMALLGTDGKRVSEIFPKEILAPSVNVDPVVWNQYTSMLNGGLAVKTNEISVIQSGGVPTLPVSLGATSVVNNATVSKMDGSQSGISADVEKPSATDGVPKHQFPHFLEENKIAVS
Method: universal PBM
Form: double-stranded DNA, one strand shown
Matrix: in vitro
Concentration: 600 nM
Notes: 8-mer, flanks averaged, mean of replicates
Reading: higher = stronger binding
| Oligonucleotide | E-score |
| --- | --- |
| AGTAGCTG | -0.0548 |
| CTGCAACC | -0.221 |
| GAGAAAGC | -0.0367 |
| CCAAAGCC | -0.183 |
| AGTTAACC | 0.0583 |
| CGGCATTC | -0.0721 |
| CCTTTTGA | 0.187 |
| GTGACCCA | -0.162 |

Block 3
Target: HLA class I histocompatibility antigen, A alpha chain, allele A*80:01 (Homo sapiens, UniProt P04439)
Read-out: peptide-MHC binding
Form: peptide
Concentration: concentration not given
| Molecule | binding |
| --- | --- |
| SGLPGIFIV | inactive |
| MPDTLFEGV | inactive |
| LARFPCNVI | inactive |
| VLSDLCNFL | inactive |

Block 4
Target: RNA binding protein fox-1 homolog 2, RRM domain, GST-SBP tag (RBFOX2, Homo sapiens, UniProt O43251-10, residues 100-194)
Method: RNA Bind-n-Seq
Form: RNA
Matrix: in vitro
Concentration: 365 nM
Notes: natural RNA segment, single round, ends assumed
Relative to: no-protein control
Reading: higher = stronger binding
Constant ends, left off below: GGGAGUUCUACAGUCCGACGAUC … UGGAAUUCUCGGGUGCCAA
Construct (chain): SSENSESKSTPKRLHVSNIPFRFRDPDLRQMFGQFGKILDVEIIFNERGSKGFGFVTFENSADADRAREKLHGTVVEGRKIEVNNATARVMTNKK
| Oligonucleotide | RBNS enrichment (R) |
| --- | --- |
| GUGGGCUGGAACGGUUCCACCUUCGCUUGAGUCCUGGCCCCACUUACCUGCACCGCUGUUCUUUGAGCCUCGCUCCACGUAGUGUUCUGUGUUUAUCCACCGGUAGCGAU | 0.934 |
| GGAGCUCAGACUGCUGCUUUCAUAGGCAAAGUGUGCCCAUGGGGGCCAGUCAUGGGAACAUGUCAAAGCCAACAGGAAGCAGAACCUGUAGCUUUCUCUGGCAUUAGGGA | 0.302 |
| GGGCUCAGCCCUCUAGAGCGCCUGUGGAGGCAGUUUCCAGGCAGUAAUGGAGUCCCCACCACCGCUUAGGUUCUGCUGGGGUCACACUGCCUUCAGAUUCCUGCCGCCAU | 0.415 |
| GUGGAACUAUUCAAGGGACGGAACUCCUCUGGAGACUCUGUUUAAACAUACUUUUCAGUUCCCGAGAGACCACCUAAGUAAGAUGACAUUUCUGACAGGCGGGUGCCAGU | 0.525 |
| AAAUACAAAUGAAGUCACGUUUCCUGAGCAGUUUUUCUGAGUCUCAAACUAGGAACAAAUUCUGAGUGUACCAAUGGCUGCGAAUGCUAUGAUUUUGUGACUUCUGGUCA | 0.342 |
| UGGUAACAGAGCGUCACCACAUAGGAUGUGCCAUUAUCUAGCUAAAGUCAUUCCUUCCUUCCUUCUGUUUCAAGUCAUUGCUGCCAGAUCUGGCUUAAUAAGACUUGGUG | 0.312 |
| AUAGUGAAUGAGAAGUGGUAGUCAUUUGUAAGGAUAGCACACAUUGAAUUUGGAAUUUAUUUCUUCCAUGUUUUGAUCAAUUCUCUGUAACUUUUCUUGGCUUAUAAGGU | 1.05 |
| GACACUAUUAAAUAAGCAGUAAUUCCUUGAAAGGAGUACCUGUACCAAGUCCUAGGAAAUAAUGCUUGUAAUAAACUUAACUGUGUUACAUCAGUAGGUAAAAUACAUAA | 0.25 |

For quick reference, copied from above (block 2):
| Oligonucleotide | E-score |
| --- | --- |
| CGGCATTC | -0.0721 |
| GAGAAAGC | -0.0367 |
